Published values from different studies.
Every numbered part comes from another study and shows a few of its results, in no order.

Block 1 — technique: protein binding microarray; form: double-stranded DNA, one strand shown; medium: in vitro; tested at: not given; relative to: not given; reading: higher = stronger binding; quantity: E-score
Target: Histone acetyltransferase KAT6A, both winged helices, GST fusion (KAT6A, Homo sapiens, UniProt Q92794, residues 1-181)
Setting: 8-mer, flanks averaged, mean of 2 arrays, mostly near background
Target sequence (chain): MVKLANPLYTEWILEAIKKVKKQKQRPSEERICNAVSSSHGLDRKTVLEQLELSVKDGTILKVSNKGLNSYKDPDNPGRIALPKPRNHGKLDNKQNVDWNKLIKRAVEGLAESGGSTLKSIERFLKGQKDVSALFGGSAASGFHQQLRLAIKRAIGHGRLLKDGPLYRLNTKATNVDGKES
Strand = AATACTGC; result = -0.0657
Strand = AACAGCCG; result = 0.217
Strand = ATGAGCCG; result = 0.0985
Strand = ATAGGGTA; result = -0.138
Strand = ACAACTCC; result = -0.0383
Strand = GCGAGTAC; result = 0.151
Strand = GCGTAGCC; result = 0.123
Strand = ACCAATAT; result = -0.199
Strand = CATGGGTC; result = -0.227
Strand = CATTATTC; result = -0.0901
Strand = ACCGGTAT; result = 0.158
Strand = AGTGCAAC; result = -0.0513
Strand = AGTGGTAT; result = -0.214
Strand = CAATTCGA; result = -0.112
Strand = TCCACTAA; result = -0.151
Strand = CGGAGCAG; result = 0.19
Strand = CGTGGTAC; result = 0.022
Strand = AGACGCGA; result = 0.141
Strand = AGATGTAC; result = -0.105
Strand = CCCTGTCC; result = -0.0806
Strand = ATAGTATG; result = -0.153
Strand = CTAGCCAA; result = -0.02
Strand = AAGCCTGA; result = -0.158

Block 2 — organism: Saccharomyces cerevisiae; read-out: binding; technique: yeast competitive growth sequencing; form: peptide; strain: cyclin A1-Cln2 strain; medium: peptide tiling library; reading: direction not given; quantity: enrichment score
Sequence = KRCATPVIIDEILPSK; result = 0.525
Sequence = SPPRGRRLFPPGPAGF; result = -0.361
Sequence = PHKTFRKLRLFDTPHT; result = -2.44
Sequence = NSMKELNFSHLPSNSV; result = 0.591
Sequence = ATNSSHTDAHEILVSD; result = -0.0948
Sequence = GPVKLEFDVSDGAT; result = 0.0577
Sequence = NESHLDKEHDAVEVAD; result = 1.36
Sequence = GTPKRCLDLSNLSSGE; result = 0.274
Sequence = ASVLSKPIFCFVKD; result = 0.492
Sequence = RTEALEQGGLPKKLIF; result = -1.13
Sequence = YLYLLLTQSLWCRV; result = -1.57
Sequence = AKRSLGFLPQPVPL; result = -0.229
Sequence = LENIEPLQVSFAVLSS; result = 1.62
Sequence = RQVRRDLFAF; result = -1.15
Sequence = EPRNLLSLFEDTLDPT; result = 1.45
Sequence = VLPGGVPSPGASLTSM; result = 0.319

Block 3 — technique: RNA Bind-n-Seq; form: RNA; medium: in vitro; tested at: not given; setting: RNA with constant flanks, ends assumed; relative to: input RNA pool; reading: higher = stronger binding; quantity: bound/input enrichment
Target: RING finger protein unkempt homolog, zinc fingers 1-6, GST-SBP tag (UNK, Homo sapiens, UniProt Q9C0B0, residues 30-357)
Chain of UniProt Q9C0B0 (30-357, looked up): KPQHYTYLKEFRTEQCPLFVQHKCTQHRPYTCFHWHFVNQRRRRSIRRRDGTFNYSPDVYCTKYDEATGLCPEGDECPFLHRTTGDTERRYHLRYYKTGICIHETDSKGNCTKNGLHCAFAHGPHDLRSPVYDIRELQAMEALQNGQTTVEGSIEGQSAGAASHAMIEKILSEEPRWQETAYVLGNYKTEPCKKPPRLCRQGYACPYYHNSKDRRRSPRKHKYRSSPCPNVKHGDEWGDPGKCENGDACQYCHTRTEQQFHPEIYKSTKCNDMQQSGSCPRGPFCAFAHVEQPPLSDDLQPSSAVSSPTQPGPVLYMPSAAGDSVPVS
Strand = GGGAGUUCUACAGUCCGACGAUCCUUCCAUUUAUUGUUUCUCAUAGAUUGUCUAAUACCUUGAGCUUAGAUAUUCAUGAAAAUCACCGUUUUGCACUUCUAGGGAAGAAGAAAUCAAGCAAUUUGACAUUACCACCCAAAUAUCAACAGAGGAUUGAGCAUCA; result = 0.312 ratio
Strand = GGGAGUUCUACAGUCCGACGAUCCCAGAGGAGAUGCUGUCUAUGUACUGUGCUACUCUUUGAUUCUACUUUCCAUUGACCUCACCCGUCCUCAUGUGAAGAAUAAAAUGUCAAAAAGAGAGUUUAUUCGAAAUACGCGCCGUGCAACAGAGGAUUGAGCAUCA; result = 0.0823 ratio
Strand = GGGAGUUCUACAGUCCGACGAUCCUUCGGGUUUCUGAGACUGUGGCAUUCACUGACGUGAAUUCAAUCCUGCGCUACCUGGCCCGAAUUGCAACUACGUCUGGGCUGUAUGGGACUAACCUGAUGGAGCACACUGAGAUUGAUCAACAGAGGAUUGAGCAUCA; result = 0.201 ratio
Strand = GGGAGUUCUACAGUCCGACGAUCGUCCAGCGUAAGAGGGAGCUGUGGCCAAGAGAGAAGGAGGGUCAGCGCCAGGAGCCCGAAGAAUUUAAGCAGAAGAUCCGGAAGCAGAAAGAAGAGAGACUUCUUCAAGCUGCCCAGCAGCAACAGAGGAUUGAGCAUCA; result = 0.176 ratio
Strand = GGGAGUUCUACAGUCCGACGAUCUGAGCUGCCGAAGCCGCCGUCCUGCUCUCCCGCGUGGGCUUCUCUAAUUCCAUUGUUUUUUUCCGAUUCUCUCGGGCCUAGCCGUCCUUGGAACCCGAUAUUCGGGCUGGGCGGUUCCGCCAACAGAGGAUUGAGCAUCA; result = 0.279 ratio
Strand = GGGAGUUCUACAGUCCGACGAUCUUAAACUAAAUGGAACCAUGUGCUAAUUUUACAGUGACUGACCUGUACUGAUUACCACUGCCGUUUGGUAUUUCCCUUUACUUUGGUGGCCUGCUUCCCUCAUGCCCUGGAGUACAGCUCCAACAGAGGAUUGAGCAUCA; result = 0.199 ratio
Strand = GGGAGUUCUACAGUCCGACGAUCGAAUUGCCAGAGAGGGCAACAAAUCCAUUUGUAAAUAGAGAGUCAGCAGAGUUUUCAGUAUCCGAAUACUCAGAAAUGGGAUCAUCUUUCAAUGGCUCCCCAAAAGGAGAGUCAGCCAUGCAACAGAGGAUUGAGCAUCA; result = 0.228 ratio
Strand = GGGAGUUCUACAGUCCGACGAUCGGCCAGGCUUUUGAGCUGAUCUUGAAGCCACCAUCUCCUAUCUCAGAAGCCCCACGAACUUCCGCUUCUCCAAAGAAGAAAGACCUGUCCCUGGAGGAGAUCCAGAAGAAACUGGAGGCUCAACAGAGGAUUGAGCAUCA; result = 0.0491 ratio
Strand = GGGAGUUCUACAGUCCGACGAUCACUACCCACAAAGAAGAAAAGAGUUUACUAGAACUAGAAGUUGAUUUGGAUAACUUGGAAUCCGAGGAUAUUGACACAACAGACAUUAAUCUGGAUGAAGAUAUUCUGGAUGAUUAAAGUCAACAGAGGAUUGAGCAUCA; result = 0.429 ratio
Strand = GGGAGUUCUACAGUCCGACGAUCAUUAAUGAGGGCCUUAAAGCGGCUGACAAUGACCCCACAGCUCCACCAUAUGACUCCCUGUCCGUGUUUGACUAUGAAGGCAGUGGCUCCACUGCUGGGUCCUUGAGCUCCCUUAAUUCCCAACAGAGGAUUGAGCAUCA; result = 0.291 ratio
Strand = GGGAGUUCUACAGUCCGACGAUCCCAUGGACAACAAGCCUUGGGUAACCGGACCAGGCCAAGGGUCUACAAUUCUCCAACGAACCGCUCCUCUACCCAAGAUUCUAUGGAGGUUGGCCACAGUCACCACUCCAUGACAUCCCUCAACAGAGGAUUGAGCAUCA; result = 0.0417 ratio

Block 4 — technique: protein-binding microarray; form: double-stranded DNA, one strand shown; medium: in vitro; tested at: not given; reading: higher = stronger binding; quantity: E-score
Target: Protein C-ets-1 (ETS1, Homo sapiens, UniProt P14921, residues 1-441, Y397A, full length assumed)
Setting: k-mer, scored over probes, only values ≥0.25
Residues (chain): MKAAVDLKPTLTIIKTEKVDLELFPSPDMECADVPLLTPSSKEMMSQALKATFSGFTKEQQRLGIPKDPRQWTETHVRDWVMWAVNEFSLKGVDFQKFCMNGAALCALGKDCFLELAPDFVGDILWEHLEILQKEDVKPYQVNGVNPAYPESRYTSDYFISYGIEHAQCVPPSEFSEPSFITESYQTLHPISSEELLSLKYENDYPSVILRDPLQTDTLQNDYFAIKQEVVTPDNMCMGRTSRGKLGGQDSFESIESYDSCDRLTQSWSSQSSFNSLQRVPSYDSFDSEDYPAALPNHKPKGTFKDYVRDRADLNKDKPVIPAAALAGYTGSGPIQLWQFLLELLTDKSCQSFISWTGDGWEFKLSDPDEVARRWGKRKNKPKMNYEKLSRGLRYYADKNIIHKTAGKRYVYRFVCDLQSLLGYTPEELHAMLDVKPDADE
Strand = AAATTGTC; result = 0.33
Strand = TAGGCAAA; result = 0.279
Strand = CTTCCGGA; result = 0.413
Strand = CCCGCCAC; result = 0.267
Strand = GTTTGCAA; result = 0.322
Strand = GTGATCAC; result = 0.262
Strand = CCGGAAGC; result = 0.466
Strand = TACGAGTA; result = 0.258
Strand = ACAAATTG; result = 0.285
Strand = CAACGTTG; result = 0.278
Strand = TACGACAA; result = 0.351
Strand = ATGACAAC; result = 0.309
Strand = ACGTACAA; result = 0.303
Strand = CGGAAGCA; result = 0.407

Excerpt of the above (block 1):
Strand = ATGAGCCG; result = 0.0985
Strand = ATAGGGTA; result = -0.138
Strand = ACAACTCC; result = -0.0383
Strand = GCGAGTAC; result = 0.151
Strand = GCGTAGCC; result = 0.123
Strand = ACCAATAT; result = -0.199
Strand = CATGGGTC; result = -0.227
Strand = CATTATTC; result = -0.0901
